Experimental data from different studies.
Parts stem from different laboratories: compare values within a part only. Positions count from the first letter of the parent shown.

Series 1 — technique: RNA Bind-n-Seq; form: RNA; medium: in vitro; tested at: not given; reference: input RNA pool; direction: higher = stronger binding
Target: RING finger protein unkempt homolog, zinc fingers 1-6, GST-SBP tag (UNK, Homo sapiens, UniProt Q9C0B0, residues 30-357)
Chain of UniProt Q9C0B0 (30-357, looked up): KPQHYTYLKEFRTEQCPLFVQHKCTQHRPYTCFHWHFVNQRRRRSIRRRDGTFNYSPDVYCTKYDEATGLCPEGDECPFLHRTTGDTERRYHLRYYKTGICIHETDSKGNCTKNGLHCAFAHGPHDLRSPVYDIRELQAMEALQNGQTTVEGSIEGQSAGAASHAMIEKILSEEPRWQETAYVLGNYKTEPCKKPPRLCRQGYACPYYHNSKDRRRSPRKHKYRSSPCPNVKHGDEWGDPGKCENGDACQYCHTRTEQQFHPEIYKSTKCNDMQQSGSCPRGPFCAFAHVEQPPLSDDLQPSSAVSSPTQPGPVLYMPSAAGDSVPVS
Setting: RNA with constant flanks, human-mouse chimeric sites, ends assumed
Constant ends, left off below: GGGAGUUCUACAGUCCGACGAUC … CAACAGAGGAUUGAGCAUCA
`UAAGUCCUGUGCCAGCAAUUUAUCCCAAAAGUUUUAAAUUCUGGACCAAUAGUGUUUGUUUCCUGAUUAUUGUAUCCAAUACUUUGCGUACUAUGUGACUCACUCUUACUGAUAAUAAAA` gave a bound/input enrichment of 2.09 ratio.
`ACCAUUUCUGAAUACACAGGUUUUGUGGUAGUUCACUUACGGUAUUAAAUUAUUAUUCUGCUUAGCUUAUAAUAAGGAUAAUUGCAUUUAAAGAGGUUACUGAAUGUUACUCUGAAACUU` gave a bound/input enrichment of 0.418 ratio.
With `UAAAUUAGGGCUGCCGUCCGUUCUCACUCCCUGGGCUGCGGAAAGCCAGAAGAUUUUAUCUAGCUUAUACAAGGCUGCUGGAGCUUGCUCUUUUUUUCCACGAGGGUGUUUUUGGCUGCA` the bound/input enrichment was 0.427 ratio.
`CUGGCACUCUAUCAGAUAUAUUAAUUUUUUAAUGUAGAUGUAAUUUUAAAAAUGAAUGGCUAGUUUACACGUUUAACUAGGGUUUUACUAUAUAUGUGUACAUAUGUAUAUGUAUUUAUA` gave a bound/input enrichment of 3.95 ratio.
`AGAUUCCCCCUCCUGAGGCCUUCUCCAAAGUUGGAGUCUCUUACAGAUGGUUCAUCUCCUGUUAGCGUUUUAGUUUGGACCACCCAGCCUUGGACAAUUCCCGCCAACCAGGCAAUUUGC` has a bound/input enrichment of 1.27 ratio.
The bound/input enrichment of `GUAUUUGUGCGCUCCCCACUCGUGUUUUUAAGUGUAUUUUUAUAAGAUACAUGUAUUUACAAUUGAGCUUUUGUUACAUAAUGCUGAAAACAUCUCUGAGAUUAUGAAAAAUGUUUCAAU` is reported as 0.111 ratio.
The bound/input enrichment of `AUCAAAUACUUUGGGGACAUCAUUAGUGUGGGACAGAGACUGUUGCAAGGAGCUCGGAUUUUAGGAAUUCCAGUUAUCAUAACGGAACAAUACCCCAAAGGACUUGGGAGCACGGUUCAA` is reported as 0.566 ratio.
`UUGAAAACUGAUUCAAGCAAGUUUGAAUAUCACAAUGUUAGCUUUCUAAUUCCAUAAAAGUACUUGGUUUUUACAGUUUAUAAUCUGACAUCACCCCAGCGCCAUUUAGAUCAGCUUACU` gave a bound/input enrichment of 1.39 ratio.
`CUGGGUAUCAUCUCUCGUGCUGUUAGACACCUGUUCAAGAGUAUUGAUGAGAAAAAGCACAUAGCAAUUAAAAACGGGCUGCCCCCUCCUGAAUUCAAAGUGAAUGCCCAGUUCCUAGAG` has a bound/input enrichment of 0.948 ratio.
`CACAGAGCAGCACCUACCCCCUCCUCCUUUCCACACCUGCAAACUCUUUUGCCUGGGCUGAAUAUUUAGUGUAAUUACAUCUCAGCUUUGAGGGCUCCUGUGGCAAAUUCCCGGAUUAAA` gave a bound/input enrichment of 0.621 ratio.
`GAUCCACAGUGGUCUGAGGAGCAACUCAUUGCUGCAAAAUUUUGCUUUGCUGGCCUUGUUAUAGGGCAGACUGAAGUGGACAUCAUGAGUCAUGCCACACAAGCUAUAUUUGAAAUACUG` gave a bound/input enrichment of 0.158 ratio.

Series 2 — technique: protein binding microarray; form: double-stranded DNA, one strand shown; medium: in vitro; tested at: not given; reference: not given; direction: higher = stronger binding
Target: Histone acetyltransferase KAT6A, both winged helices, GST fusion (KAT6A, Homo sapiens, UniProt Q92794, residues 1-181)
Setting: 8-mer, flanks averaged, mean of 2 arrays, mostly near background
Residues (chain): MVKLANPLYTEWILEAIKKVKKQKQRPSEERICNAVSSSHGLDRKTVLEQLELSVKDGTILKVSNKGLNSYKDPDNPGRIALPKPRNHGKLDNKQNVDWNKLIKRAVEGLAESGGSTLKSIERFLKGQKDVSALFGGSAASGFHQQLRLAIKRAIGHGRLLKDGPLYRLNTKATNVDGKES
`GCTTCTAA` has an E-score of -0.166.
`ACCAGCTA` has an E-score of -0.278.
The E-score of `AGGGTATC` is reported as -0.176.
`CAGAGCGA` has an E-score of 0.0122.
`GGCTGACA` gave an E-score of 0.0564.
The E-score of `GATGCAGA` is reported as -0.173.
`CGTCGAGC` has an E-score of 0.0823.
`CTCATCTC` has an E-score of -0.0434.
For `CTTACCGA`, the E-score was 0.0438.
`CCGCATTC` has an E-score of 0.224.
`CATACTCG` gave an E-score of 0.112.
With `CGAGGATC` the E-score was 0.0447.
The E-score of `CGAGTAAC` is reported as 0.0258.
`CACTCGAG` gave an E-score of -0.141.
With `CCACACGG` the E-score was 0.174.
`ATGACCAA` has an E-score of -0.0484.
For `CTGCTGCA`, the E-score was -0.0929.
With `ATAAGCGA` the E-score was 0.0578.
`GAAAAATC` has an E-score of -0.102.
`CGGATTAA` gave an E-score of 0.144.
With `AGTAACTA` the E-score was -0.0779.

Series 3 — technique: DHFR PCA, deep sequencing; medium: yeast; added: (+)-ABA 200 µM; reference: wild-type fitted maximum; direction: higher = stronger binding
Target: ABI1, truncated, D143A, DHFR fusion (Arabidopsis thaliana)
Setting: methotrexate growth selection, single substitutions
Starting sequence: PYL1, truncated, DHFR fusion (Arabidopsis thaliana); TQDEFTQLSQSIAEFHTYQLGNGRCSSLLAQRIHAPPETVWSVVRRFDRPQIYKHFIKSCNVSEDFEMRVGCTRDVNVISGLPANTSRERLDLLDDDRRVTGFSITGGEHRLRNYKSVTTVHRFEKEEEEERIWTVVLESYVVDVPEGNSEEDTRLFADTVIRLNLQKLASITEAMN; partner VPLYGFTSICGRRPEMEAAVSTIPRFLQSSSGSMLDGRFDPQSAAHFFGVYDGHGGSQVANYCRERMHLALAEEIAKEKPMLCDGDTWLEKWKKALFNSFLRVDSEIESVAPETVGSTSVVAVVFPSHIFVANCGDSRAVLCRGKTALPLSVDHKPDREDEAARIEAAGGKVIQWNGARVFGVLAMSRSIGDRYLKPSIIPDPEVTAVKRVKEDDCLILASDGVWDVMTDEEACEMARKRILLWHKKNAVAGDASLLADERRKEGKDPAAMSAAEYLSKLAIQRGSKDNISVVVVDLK
`A170M`: “relative binding score” 93.8%.
Under “relative binding score”, `V76S` is recorded as 45.9%.
For `R24H`, “relative binding score” read 91.7%.
`T39P` — result for “relative binding score”: 63.1%.
`E128F` — result for “relative binding score”: 102%.
For `G71F`, “relative binding score” read 42.7%.
`F47L`: “relative binding score” -11.7%.
`R163I` — result for “relative binding score”: 45.3%.
`H110P` — result for “relative binding score”: 28.7%.
`S171V`: “relative binding score” 94.9%.
`C60E`: “relative binding score” 10.9%.
`R123E` — result for “relative binding score”: 110%.
For `F56I`, “relative binding score” read 4.85%.
`N149D` — result for “relative binding score”: 48.7%.
`M68A` — result for “relative binding score”: 92.5%.
`D96M` — result for “relative binding score”: 42.7%.

Series 4 — target: CCNE1, cyclin fold, Cln2 fusion (human); technique: yeast growth competition, sequencing; medium: yeast; setting: strong parent motif; reference: not given; direction: higher = stronger binding
Starting sequence: PKN2 docking peptide (human); VSAVRKLDFSDTM
Under “normalised enrichment score”, `VSAVRKIDFSDTM [L7I]` is recorded as 3.53.
`VSAVRKLDFVDTM [S10V]` — result for “normalised enrichment score”: 4.16.
`VSAVRKLDVSDTM [F9V]`: “normalised enrichment score” 0.214.
Under “normalised enrichment score”, `VCAVRKLDFSDTM [S2C]` is recorded as 4.95.
`VSAVRKLDFSATM [D11A]` — result for “normalised enrichment score”: 5.12.
`VSAVRKLDFSSTM [D11S]`: “normalised enrichment score” 5.16.
Under “normalised enrichment score”, `VSAVRDLDFSDTM [K6D]` is recorded as 0.354.
For `VSAVRKLDFSDMM [T12M]`, “normalised enrichment score” read 5.51.
For `VSAYRKLDFSDTM [V4Y]`, “normalised enrichment score” read 1.88.
`VLAVRKLDFSDTM [S2L]` — result for “normalised enrichment score”: 4.23.
`VSAVRKLDFIDTM [S10I]`: “normalised enrichment score” 4.09.
`VSAVRVLDFSDTM [K6V]`: “normalised enrichment score” 5.18.
Under “normalised enrichment score”, `VSASRKLDFSDTM [V4S]` is recorded as 2.57.
For `VSAVRKCDFSDTM [L7C]`, “normalised enrichment score” read -0.0903.
For `VSAVRCLDFSDTM [K6C]`, “normalised enrichment score” read 4.03.
`VSAVRGLDFSDTM [K6G]` — result for “normalised enrichment score”: 0.523.
Under “normalised enrichment score”, `VSAVRKRDFSDTM [L7R]` is recorded as -0.0735.
`VSAIRKLDFSDTM [V4I]`: “normalised enrichment score” 4.7.
`VSAVAKLDFSDTM [R5A]`: “normalised enrichment score” 0.333.

Series 5 — technique: protein-binding microarray; form: double-stranded DNA, one strand shown; medium: in vitro; tested at: 940 nM top; setting: 60-bp whole probe; added: salmon DNA 0.4 mg/ml; reference: random background probes; direction: higher = stronger binding; constant ends, left off below: GCCTAGCAC … GTCTTGATTCGCTTGACGCTGCTG
Target: Interferon regulatory factor 5, full length, phosphomimetic (IRF5, Homo sapiens, UniProt Q13568-2, residues 1-514, S451D/S453D/S456D/S462D)
`TTATAACTGGGGTATCGATTAGTGCTA` — result for “fitted relative affinity”: 3.33 z-score.
`CCCTGAGTCCCTTGGGCCTTGTGCTAG`: “fitted relative affinity” -0.757 z-score.
Under “fitted relative affinity”, `AAGACCATCCTGTGTCTTAAAGTGCTA` is recorded as 0.00188 z-score.
For `TCACTTGTGTTTATTGTACTGTGCTAG`, “fitted relative affinity” read 0.384 z-score.
For `GACGCACTGCTTTTCCTGACGTGCTAG`, “fitted relative affinity” read -0.0618 z-score.
`TTAGGACTGCTCCTGCTTTAGTGCTAG`: “fitted relative affinity” -0.655 z-score.
For `TTAGGTTTCCTTTTACTTTAGTGCTAG`, “fitted relative affinity” read 2.52 z-score.
`TCACCTTTATATACCTGACTGTGCTAG`: “fitted relative affinity” 1.24 z-score.
`GCCGGTCTCCTTTTCCTGACGTGCTAG`: “fitted relative affinity” 0.69 z-score.
`TCATAAACCATTTTGGTACTGTGCTAG` — result for “fitted relative affinity”: -0.46 z-score.
`AAAATGATTGGTTGAACATGGTGCTAG`: “fitted relative affinity” 0.075 z-score.
`TCAAATCCCACATTTGATACTGTGCTA` — result for “fitted relative affinity”: 0.555 z-score.
Under “fitted relative affinity”, `TCATCTCTTATTCTAACACTGTGCTAG` is recorded as 1.01 z-score.
Under “fitted relative affinity”, `TTAGGTATCCTTTTCCTATAGTGCTAG` is recorded as 0.871 z-score.
`GTGTTTCTCAAATGTTTTGTTGTGCTA`: “fitted relative affinity” 1.16 z-score.
Under “fitted relative affinity”, `CAGCCAATCAGGACTCAGGGAGTGCTA` is recorded as -0.443 z-score.
Under “fitted relative affinity”, `TTAGGTTTCGGGAATCGGTTAGTGCTA` is recorded as 8.18 z-score.
Under “fitted relative affinity”, `GACGATTTAAGTATCGAGACGTGCTAG` is recorded as 1.92 z-score.
For `TTAGGACTCGACACTGGGTTAGTGCTA`, “fitted relative affinity” read -0.527 z-score.
Under “fitted relative affinity”, `TAGTTTTTACTTTCTGAATGGTGCTAG` is recorded as 2.16 z-score.
`TCAAATTTTTTTTCTAAACTGTGCTAG`: “fitted relative affinity” 0.475 z-score.
`TTAGATATCGGGACTCGATTAGTGCTA`: “fitted relative affinity” 0.0924 z-score.
`GACGGTGCCCTTTTCCTGACGTGCTAG` — result for “fitted relative affinity”: 0.139 z-score.
`GACGGTTTCGACGATCGGGACGTGCTA` — result for “fitted relative affinity”: 7.39 z-score.
For `GAAAGCCTGCTGCCAGTCTGGTGCTAG`, “fitted relative affinity” read -0.628 z-score.
